Assay results of several laboratories.
Protocols differ between the studies behind these lines. Values joined by “and” are separate records of one study, mostly repeats; a detail may differ. ± marks the error that the study gave. In brackets after ≈: the same amount, converted by molar mass.

Compound | organism | test | test system | conditions | how to read | endpoint | result
COc1c([N+](=O)[O-])oc2ccc3ccccc3c12 | Mycobacterium marinum | REMA | ATCC BAA-535 |  |  | MIC90 | 2 µg/mL (≈ 8.22 µM)
CN1CCN(S(=O)(=O)c2cc([N+](=O)[O-])ccc2N(CCOS(C)(=O)=O)CCOS(C)(=O)=O)CC1 | Homo sapiens | cell viability, resazurin or CellTiter-Glo | sample A BCP-ALL PDX cells, ex vivo | 48 h |  | IC50 | 382 nM
CO/N=C(\C(=O)N[C@@H]1C(=O)N2C(C(=O)O)=C(CSC(=O)c3ccco3)CS[C@H]12)c1csc(N)n1 | Staphylococcus aureus |  | CAAS-2019-CAAS-2019-17 clinical blaZ-resistant isolate, PBS |  |  | MBC | 4 µg/mL
CC(=O)N[C@H]1[C@@H](O[C@@H]2O[C@H](C[C@@H](O)[C@H]3O[C@@H](n4ccc(=O)[nH]c4=O)[C@H](O)[C@@H]3O)[C@H](O)[C@H](O)[C@H]2NC(=O)/C=C/CCCCCCCCCC(C)C)O[C@H](CO)[C@@H](O)[C@@H]1O | Bacillus subtilis | microplate alamar blue | ATCC 6051 |  |  | MIC90 | 0.3 µg/mL (≈ 0.361 µM)
COc1cnc(OC)n2nc(NS(=O)(=O)c3c(OCC(F)F)cccc3C(F)(F)F)nc12 | Setaria viridis |  | greenhouse | postemergence, 150 g ai/ha, 21 days |  | fresh weight inhibition | 77.41 ± 0.72%
CS(=O)(=O)OCCN(CCBr)c1c(C(=O)NCCO)cc([N+](=O)[O-])cc1[N+](=O)[O-] | Homo sapiens | cell viability, resazurin or CellTiter-Glo | sample A BCP-ALL PDX cells, ex vivo |  |  | IC50 | 32500 nM
Cn1c(=O)ccc2ccc(F)c(CCNC[C@H]3CN(c4cnc5c(n4)NC(=O)CO5)C(=O)O3)c21 | Prevotella sp. |  |  |  |  | MIC90 | < 0.015 µg/mL
Nc1ncnc2c1ncn2[C@@H]1O[C@@H]2COP(=O)(O)O[C@H]3[C@@H](O)[C@H](n4cnc5c(=O)[nH]cnc54)O[C@@H]3COP(=O)(O)O[C@H]2[C@H]1O | West Nile virus | RNA sequencing, measured: muscle contraction, smooth, R-HSA-445355 | HFF-1 cells | concentration not given, downregulated pathway | relative to: WNV-infected untreated cells | fold enrichment | 12.1
COC(=O)C(N)Cc1ccc(OP2(=O)COC(Cn3ccc(N)nc3=O)CO2)cc1 (stereo not drawn) | human cytomegalovirus | viral replication |  |  |  | IC50 | 200 nM
N=C(N)c1ccc(OCc2ccc(-c3ccccc3)cc2COc2ccc(C(=N)N)cc2)cc1 | Escherichia coli | checkerboard | mcr-1 polymyxin-resistant | unit not given, with: rifampicin | lower = stronger synergy | FICI | 0.047
CCCCc1ccc(CNc2nc(N(C)C)nc(N(C)C)c2/N=N/c2ccc(Cl)cc2)cc1 | Ostrinia furnacalis | leaf dipping |  | 3.13 mg/L |  | mortality | 26.7%
CC1(C)SC2C(NC(=O)C(NC(=O)C3=C(O)CNC3=O)c3ccccc3)C(=O)N2C1C(=O)O (stereo not drawn) | Escherichia coli | broth microdilution | isolate IU, CTX-M-14, TEM-1 | with: clavulanic acid 6 µg/mL |  | MIC | > 200 µg/mL
CO[C@H]1/C=C/O[C@@]2(C)Oc3c(C)c(O)c4c(O)c(c(/C=N/N5CCN(C)CC5)c(O)c4c3C2=O)NC(=O)/C(C)=C\C=C\[C@H](C)[C@H](O)[C@@H](C)[C@@H](O)[C@@H](C)[C@H](OC(C)=O)[C@@H]1C | Mycobacterium marinum | REMA | ATCC BAA-535 |  |  | MIC90 | 0.1 µg/mL (≈ 0.122 µM)
O=C(NNc1ccc(F)c(F)c1)c1nnc(C23CC4CC(CC(C4)C2)C3)o1 | Botryosphaeria dothidea | fungal growth, inhibitor |  | 50 µg/mL |  | inhibition | 100%
Cl.N/C(CC(O)c1cc2c(F)cc(F)cc2c2cc(C(F)(F)F)ccc12)=N\c1ccc(F)cc1 (stereo not drawn) | Plasmodium berghei | Peters test | ANKA, mice | oral, 4 x 50 mg/kg |  | mean survival time | 30 days
O=C(NNc1cccc(Cl)c1)c1nnc(C23CC4CC(CC(C4)C2)C3)o1 | Botryosphaeria dothidea | fungal growth, inhibitor |  | 50 µg/mL |  | inhibition | 100%
Cc1c2c(nn1C)CSCc1cc(n(C)n1)CSc1cc(c3ccccc3c1)OCCCc1c(C(=O)O)n(C)c3c-2c(Cl)ccc13 | Staphylococcus aureus | label-free quantitative proteomics, measured: SAOUHSC_02073 protein | SA113 | concentration not given | relative to: untreated control | log2 fold change | -5.09
Cl.N=C(CC(O)c1cc2c(F)cc(F)cc2c2cc(C(F)(F)F)ccc12)Nc1ccc(Br)cc1 (stereo not drawn) | Plasmodium berghei | Peters test | ANKA, mice | oral, 4 x 10 mg/kg |  | mean survival time | 21 days
C[C@H]1COCCN1c1nc(NCc2cccnc2C(F)(F)F)c2cccnc2n1 | Brugia malayi |  | SCID mouse, peritoneal cavity | dose not given, 6 weeks post-treatment, dosing x14d |  | median microfilaria count | 0 microfilariae per mouse
Nc1nc(O)c2ncn(COC(CO)CO)c2n1 | feline herpesvirus | viral cytopathic effect, MTS | CRFK |  |  | EC50 | 2000 nM
O=[N+]([O-])c1cc2c(ccc3c4cc([N+](=O)[O-])oc4ccc23)o1 | Mycobacterium marinum | REMA | ATCC BAA-535 |  |  | MIC90 | 1 µg/mL (≈ 3.35 µM)
Cl.N=C(CC(O)c1cc2c(F)cc(F)cc2c2cc(C(F)(F)F)ccc12)Nc1ccc(F)c(F)c1 (stereo not drawn) | Plasmodium berghei | Peters test | ANKA, mice | oral, 4 x 3 mg/kg |  | mean survival time | 13 days
CC[C@H](C)[C@H](NC(=O)[C@H](CC(C)C)NC(=O)[C@@H]1CCCN1C(=O)[C@@H](N)CC(C)C)C(=O)N[C@H](C(=O)N[C@@H](Cc1ccccc1)C(=O)N[C@@H](CC(C)C)C(=O)N[C@@H](CCCNC(=N)N)C(=O)N[C@@H](CC(N)=O)C(=O)N[C@@H](CCCNC(=N)N)C(=O)N[C@@H](CC(C)C)C(=O)N[C@@H](CCCCN)C(=O)N[C@@H](Cc1ccc(O)cc1)C(=O)O)[C@@H](C)CC | Micrococcus luteus |  | NCTC 2665 |  |  | MBC | 32 µg/mL (≈ 19.3 µM)
CCCCCC[C@H]1C(=O)O[C@H](C)[C@H](NC(=O)c2cccc(NC=O)c2O)C(=O)O[C@@H](C)[C@@H]1OC(=O)CC(C)C | Drosophila melanogaster | fluorescence |  | liquid food, 40 µg/mL, first instar larvae | relative to: solvent | fluorescein ingestion | -30.5%
c1ccc2c(-c3nccs3)c[nH]c2c1 | Trypanosoma cruzi | [3H]uracil incorporation | amastigotes in rat L6E9 myoblasts | 72 h |  | IC50 | 11300 nM
CS(=O)(=O)CCCn1c(Cn2c(=O)n(CC(F)(F)F)c3ccncc32)cc2cc(Cl)ccc21 | respiratory syncytial virus | RT-qPCR | hospitalized infants 1-24 months, nasal swab | oral, 8 mg/kg daily, day 28, cohort 6-24 months | relative to: baseline | LS mean viral load change | -4.38 log10 copies/mL
Cn1cc(NC(=O)c2cc(NC(=O)CN=C(N)N)cn2C)cc1C(=O)NCCC(=N)N | Bacillus subtilis | bacterial cytological profiling | ATCC 6633 | concentration not given |  | cell width | 0.95 µm and 0.94 µm
CC[C@H](C)[C@H](NC(=O)[C@H](C)NC(=O)[C@H](CCCCN)NC(=O)[C@H](CC(C)C)NC(=O)[C@H](C)NC(=O)[C@@H](NC(=O)[C@H](Cc1c[nH]cn1)NC(=O)[C@H](CC(C)C)NC(=O)[C@@H](NC(=O)[C@@H](NC(=O)[C@H](CCCCN)NC(=O)[C@H](C)NC(=O)[C@H](C)NC(=O)[C@H](CO)NC(=O)[C@H](CCCCN)NC(=O)[C@H](Cc1ccccc1)NC(=O)[C@@H](NC(=O)[C@H](CCCCN)NC(=O)[C@H](CC(C)C)NC(=O)[C@H](Cc1ccccc1)NC(=O)[C@H](CO)NC(=O)[C@H](CCCCN)NC(=O)[C@H](Cc1c[nH]c2ccccc12)NC(=O)[C@H](CCCCN)NC(C)=O)[C@@H](C)O)[C@@H](C)O)C(C)C)[C@@H](C)O)C(=O)N[C@@H](CO)C(=O)N[C@@H](CO)C(N)=O | Streptococcus pyogenes |  | ATCC 13813 |  |  | MIC range | 16 µg/mL (≈ 5.45 µM)
CN(C)c1nc(NCc2cccc(C(F)(F)F)c2)c(/N=N/c2ccc(Cl)cc2)c(N(C)C)n1 | Plutella xylostella | leaf dipping |  | 200 mg/L, 96 h |  | mortality | 70 ± 5.3%
C/C(=C\C=C\[C@]1(C)[C@@H](O)CC[C@@]2(C)[C@H]1CC[C@H]1Cc3c([nH]c4cc5c(cc34)C3=CC(C)(C)OC(C)(C)[C@H]3C5)[C@@]12C)C(=O)O | Brugia malayi |  | adult male worms | 10 µM, 144 h |  | motility | 38 ± 11%

A few entries again:
Compound | organism | test | test system | conditions | how to read | endpoint | result
N=C(N)c1ccc(OCc2ccc(-c3ccccc3)cc2COc2ccc(C(=N)N)cc2)cc1 | Escherichia coli | checkerboard | mcr-1 polymyxin-resistant | unit not given, with: rifampicin | lower = stronger synergy | FICI | 0.047
CO/N=C(\C(=O)N[C@@H]1C(=O)N2C(C(=O)O)=C(CSC(=O)c3ccco3)CS[C@H]12)c1csc(N)n1 | Staphylococcus aureus |  | CAAS-2019-CAAS-2019-17 clinical blaZ-resistant isolate, PBS |  |  | MBC | 4 µg/mL
